# Experimental data pooled from the literature.
# Each numbered part is a random draw from the data of one study; scales do not carry over between parts. Changes are numbered by the printed parent chain.

# Study 1 — technique: DNA-protein interaction ELISA; form: double-stranded DNA, one strand shown; matrix: in vitro, bacterial lysate; concentration: not given; notes: whole dsDNA probe, crude lysate protein; baseline: highest signal in screen; reading: higher = stronger binding
# Target: Probable WRKY transcription factor 11, DNA-binding domain (WRKY11, Arabidopsis thaliana, UniProt Q9SV15, residues 228-325)
# Construct (chain): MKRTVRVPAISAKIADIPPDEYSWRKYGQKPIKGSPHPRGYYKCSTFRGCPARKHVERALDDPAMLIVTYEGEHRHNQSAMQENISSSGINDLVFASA
Sequence,relative absorbance
AAAAAAACTCTCCGGGTACAATTGCAAAAA,13.3 % of maximum
AAAAAAATTTTTAGTTTTAATTTTGGAAAA,15.6 % of maximum
AAAAAATGCCATTGTACCTGTGTTCGAAAA,10.7 % of maximum
AAAAAAGAGAATTGTCAGTGCCCAACAAAA,18.2 % of maximum
AAAAAAGGCTCCGGCCCCCAATCGCAAAAA,16.4 % of maximum
AAAAAACGGGATTCGAAACTTTTTGTAAAA,13.5 % of maximum
AAAAAAAGTCTGCGGCTGCAGGGCGGAAAA,47.5 % of maximum
AAAAAAGATTGACTCGTCTTACTCGAAAAA,73.8 % of maximum

# Study 2 — target: CRIPT, C-terminal peptide; technique: DHFR complementation, deep sequencing; matrix: yeast; baseline: wild type; reading: higher = weaker binding
# Notes: single substitutions, model-inferred values
# Starting sequence: ERBIN, PDZ domain 1 (human); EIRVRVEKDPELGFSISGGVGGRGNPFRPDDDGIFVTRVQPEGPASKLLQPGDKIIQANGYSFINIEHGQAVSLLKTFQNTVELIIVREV; partner TKNYKQTSV
Variant,binding free energy change
I64F,-0.117 kcal/mol
Q40V,0.196 kcal/mol
G52F,0.88 kcal/mol
K47V,0.189 kcal/mol
N59F,0.506 kcal/mol
E83P,0.309 kcal/mol
G21K,0.227 kcal/mol
E67A,0.0549 kcal/mol

# Study 3 — technique: RNA Bind-n-Seq; form: RNA; matrix: in vitro; concentration: 365 nM; baseline: no-protein control; reading: higher = stronger binding
# Target: RNA binding protein fox-1 homolog 2, RRM domain, GST-SBP tag (RBFOX2, Homo sapiens, UniProt O43251-10, residues 100-194)
# Notes: natural RNA segment, single round, ends assumed
# Target sequence (chain): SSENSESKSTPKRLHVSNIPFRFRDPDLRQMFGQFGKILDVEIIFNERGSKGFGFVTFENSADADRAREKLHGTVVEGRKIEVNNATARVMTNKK
Sequence,RBNS enrichment (R)
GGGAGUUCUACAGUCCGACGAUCUAAGAGUUAAAUAUUACUGAAUUUCAGACGUUCAAAUUGAUCAUCAGAAAUCCUUUAAAACAAUUACCUAAAAGAAACCAAAAAUCCUGCCUUCUUUGUUGGGGGGAGAAUGGAAUUCUCGGGUGCCAA,0.419
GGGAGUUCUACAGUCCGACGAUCGAAGUAAUGUAUACUCUAGUAUUCUGGUGUUUUUAUAUUUAUGUAAUAAUUUCUUAAAACCAUUCAGACAGAUAACUAUUUAAUUUUUUUUAAGAAAGUUGGAAAGGUCUUGGAAUUCUCGGGUGCCAA,0.548
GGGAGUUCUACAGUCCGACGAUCACUCACGGUUUGCAUCAAGAGUGUUUUUUGUAACUGCCUCUGGACUUGGGACAGUGAGUAGGAUCAAAAAUAAAUAAUGUACAUGACGGGGAAGGGAAAAACCUGUUGGAUGGAAUUCUCGGGUGCCAA,0.636
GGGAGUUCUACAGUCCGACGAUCCUGUGUGUGUGGACGAGAAGCCAUUCACCGUAAGGGUGCAGAAAGCUCGACCAAGCCGAAUUGCAAACAACGUUCGUUCUAUUUUUAAAUGUACAGGUUCGAUCGUUUCUUGGAAUUCUCGGGUGCCAA,0.281
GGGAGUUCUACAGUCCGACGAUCAGCCAUGGUGGCCCUGGCCUUCUUUGUGGUACAGAUCAGCAAGGCCAAGAGCCGGCCGAAGCGGAGGAGGCCCAGGGCAAAGCGUCCACAACUUGCACAGCAGGCCCACCUGGAAUUCUCGGGUGCCAA,0.391
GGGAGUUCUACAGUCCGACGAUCAAGCUUUAUUUGAAGCAAAGCUAGCCAAGAUUCUACGUUACUUUUCCCUUGACUGGAUCCCAAGUAGCUUGGAAGUUUUUGUGCCCAGGAGAGUAAAUAACUGUGAACAAUGGAAUUCUCGGGUGCCAA,0.403
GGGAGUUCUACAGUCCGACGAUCGUGUUGAAUUUCCUUUUUAUGCAUCAAACGAAGGCCAUAUUGUCCAUAAAUGCUCAGUGCUCAGGAUCUCAUUAAUAUGCCGAACCUAACUACAGAUGACUUUUUAAUAUUGGAAUUCUCGGGUGCCAA,0.53
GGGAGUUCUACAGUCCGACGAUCUUUCUGUUAUAGUAACAAAAUAGAGUUAUGUAGAAUUGUAUGGAACUCAAAUUUAAACCAUGCUUUCUUGUAGUACUGAUUGAAACUUACACGUUUUAUUCUACUCAUAGUGGAAUUCUCGGGUGCCAA,0.627

# Mixed results
SMILES,test system,setting,quantity,result
CC(C)n1cnc(-c2ccc(F)cc2)c1-c1ncc(C(=O)Nc2ccc(N3CCN(C)CC3)cc2)[nH]1,IPF patients,"60 mg once daily, adverse event",Hypertriglyceridaemia incidence,0%

# Excerpt of the above (study 3):
Sequence,RBNS enrichment (R)
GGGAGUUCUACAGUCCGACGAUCUAAGAGUUAAAUAUUACUGAAUUUCAGACGUUCAAAUUGAUCAUCAGAAAUCCUUUAAAACAAUUACCUAAAAGAAACCAAAAAUCCUGCCUUCUUUGUUGGGGGGAGAAUGGAAUUCUCGGGUGCCAA,0.419
